Assay results from different studies.
Compare with care: the assays were run in different laboratories. Values joined by “and” are separate records of one study, mostly repeats; a detail may differ. ± marks the error that the study gave.

Compound	assay	test system	setting	measurement	value
O=[N+]([O-])NC1=NCCN1Cc1ccc(Cl)nc1		whole cow milk	2000 nM nominal	dose fraction in milk fat	2.55%
COc1cc(C(=O)NC2CCN(C)CC2)c(F)cc1Nc1ncc(C(F)(F)F)c(Oc2cccc3c2C(=O)N(C)C3)n1		human patients, plasma	oral, 10 mg once daily repeated, geometric mean	mean residence time at steady state	36.4 h
N=C(N)NCCNC(=O)C1(Nc2ccccc2)CCN(Cc2ccccc2)CC1		female Sprague-Dawley rats	oral, 50 mg/kg	elimination rate constant	0.00108 ± 0.000389 s⁻¹
Clc1cc2c(cc1Cl)Oc1c(ccc(Cl)c1Cl)O2		whole cow milk	200 nM nominal	dose fraction in skim milk	5.2%
O=C(O)CCCOc1ccc(F)cc1-c1cc(-c2ccccc2C(F)(F)F)n(-c2ccccc2)n1		Crl:CD(SD) rats, female, plasma	iv, 25 µg/kg, 14 days	prothrombin time	9.5 s
CN[C@@H](C)C(=O)N[C@H]1CN(S(=O)(=O)c2cccc(S(=O)(=O)N3CC[C@H]4CC[C@@H](C(=O)NC(c5ccccc5)c5ccccc5)N4C(=O)[C@@H](NC(=O)[C@H](C)NC)C3)c2)CC[C@H]2CC[C@@H](C(=O)NC(c3ccccc3)c3ccccc3)N2C1=O		patients with advanced solid tumours	7 mg, phase I monotherapy	treatment-related ALT elevation incidence	0%
O=C(Nc1ccccc1)C1CCN(C(=O)Oc2cccnc2)CC1		healthy women	oral, 20 mg, 7 days	adverse event Agitation	7.1%
CO[C@H]1C[C@@H]2CC[C@@H](C)[C@@](O)(O2)C(=O)C(=O)N2CCCC[C@H]2C(=O)O[C@H]([C@H](C)C[C@@H]2CC[C@@H](OC(=O)NCCOCCOCCOCCOCCOCCOCCOCCOCCC(=O)N3CCc4cc(Cn5nc(-c6ccc7oc(N)nc7c6)c6c(N)ncnc65)ccc4C3)[C@H](OC)C2)C[C@@H](O)[C@H](C)/C=C(\C)[C@@H](O)[C@@H](OC)C(=O)[C@H](C)C[C@H](C)/C=C/C=C/C=C/1C		patients with advanced solid tumours	intravenous, 8 mg weekly, grade 3 or higher	mucositis incidence	0%
CC(C)[C@@H]1CC[C@@H](C)C[C@@H]1O	acute oral toxicity OECD	Swiss albino mice, serum	oral, 1000 mg/kg	aspartate aminotransferase	56.3 ± 4.68 U/L
C[C@]1(CO)Cc2ncn(-c3ccc(C#N)c(Cl)c3)c2C(=O)O1		human	0.7 mg single dose	subjects with drug-related orthostatic hypotension	0%
CCc1ccc(CC/C=C/c2ccc3c(c2)C(=O)CC3)cc1		Sprague-Dawley rat, female, blood	oral, 120 mg/kg/day, 14 days	MCV	58.1 fL
C[C@]1(O)C[C@@](N)(c2ccc(-c3nc4n(c3-c3ccccc3)COc3ccncc3-4)cc2)C1		human, advanced or metastatic solid tumours	20 mg once daily, phase I dose escalation	patients with TEAE	100%
COc1ccc(-c2c(-c3ccc(C#N)c(F)c3)nc(N3CCC(N)CC3)n(C)c2=O)cc1F	refers to: Constipation	relapsed/refractory marginal zone lymphoma patients	oral, 60 mg, grade 3 to 4, dose expansion	treatment-related adverse event incidence	0%
COc1cccc(Oc2ccccc2NC(=O)CNC(=O)c2cccc3ccccc23)c1		esterase-deficient SCID mice, male	oral, 15 mg/kg/day, 14 days, toxicity study	unconjugated bilirubin	0.2 mg/dL and 0.1 mg/dL
CN(C(=O)n1cnc(-c2ccc[n+]([O-])c2)c1)C1CCCCC1		Wistar rat, midbrain	oral, 10 mg/kg/day, 24 h, repeated 5 days	concentration	12.9 ± 1.5 ng/g
Cn1cncc1-c1c(F)cncc1NC(=O)c1c(N)nn2cc(F)cnc12		human patients	oral, 220 mg once daily	grade ≥3 creatinine increase incidence	33%
COc1cc2c(Oc3ccc4[nH]c(C)cc4c3F)ccnc2cc1OCC1(N)CC1		paediatric refractory sarcoma patients	12 mg	Cholesterol elevation incidence	18.2%
CC(C)C[C@H](NC(=O)[C@H](CCCCN)NC(=O)OCC1c2ccccc2-c2ccccc21)C(=O)N[C@H](C(=O)N[C@@H](Cc1ccccc1)C(=O)N[C@@H](Cc1ccccc1)C(=O)N[C@@H](CCCCN)C(=O)NCC(=O)N[C@@H](Cc1ccccc1)C(=O)N[C@@H](C)C(=O)N[C@@H](Cc1c[nH]c2ccccc12)C(=O)N[C@@H](CC(N)=O)C(=O)N[C@H](C(=O)N[C@H]1CSSC[C@@H](C(=O)N[C@@H](Cc2c[nH]cn2)C(=O)N[C@@H](CCCNC(=N)N)C(=O)N[C@@H](CCCNC(=N)N)C(=O)N[C@@H](C)C(=O)N[C@@H](CC(N)=O)C(N)=O)NC(=O)[C@H](C(C)C)NC(=O)[C@H](CCCNC(=N)N)NC(=O)[C@H](C(C)C)NC(=O)CNC(=O)[C@H](CC(N)=O)NC(=O)[C@H](CCCNC(=N)N)NC(=O)[C@H](Cc2ccc(O)cc2)NC(=O)[C@H](C(C)C)NC1=O)C(C)C)C(C)C	HPLC	mouse kidney homogenate	2560 µM, 4.00 h, 37 °C, 50 mg/mL tissue	remaining peptide	69.2% and 70.1% and 73.7%
C=C(CN(C(=O)c1c(C(F)F)nn(C)c1F)C1CC1)c1ccc(Cl)cc1Cl	static acute toxicity test	zebrafish (Brachydanio rerio)	0.833 mg a.i./L, 6 h	mortality	0%
C[C@@H]1OC(=O)NN=C1c1ccc(-c2ccc(F)cc2)c(C(F)(F)F)c1	phase I trial, refers to: Cough worst grade 1	human patients	5 mg once daily	patients with adverse event	0%
Cn1c(-c2ccc(C(N)=O)cc2F)nnc1C(C)(C)Oc1c(F)cc(Cl)cc1F		human	oral, dose not given, single ascending dose all doses	subjects with device site TEAE	13.9%
CC(=O)c1c(C)c2cnc(Nc3ccc(C4CCN(CCS(C)(=O)=O)CC4)cn3)nc2n(C2CCCC2)c1=O		human patients, plasma	oral, 75 mg twice daily, day 1 single dose, with: fulvestrant	mean residence time	5.29 h
C=CC(=O)N1CC[C@H](n2nc(C#Cc3cc(OC)cc(OC)c3)c3c(N)ncnc32)C1		patients with advanced solid tumours	oral, dose not given, Stomatitis, any grade, QD, with: lanthanum carbonate hydrate	adverse drug reaction incidence	8.3%
Cn1cc(-c2nc(N[C@@H]3CCCC[C@@H]3N)c(F)c3c2C(=O)NC3)cn1	refers to: Retinal haemorrhage	patients with relapsed or refractory AML	oral, 60 mg twice daily	hemorrhagic adverse events	13%
